Experimental data of several laboratories.
“And” joins repeats or separate records; there may be more than shown. ± gives the spread as reported.

SMILES	test	test system	setting	scale	Tmax
NC(CO)(CO)CCc1ccc(Sc2cccc(OCc3ccccc3)c2)cc1Cl	–	human male fasted, whole blood	oral, 3 mg, added: cyclosporin 100 mg b.i.d.	–	8 h
CCNCc1cc(Nc2ccnc3cc(Cl)ccc23)ccc1O	–	human, both sexes, plasma	oral, dose not given, fixed-dose combination	–	1.36 h
COc1nnc2ccc(N3CCC(c4ccc(OCCN5CCN(C)C(=O)[C@H]5C)cc4)CC3)nn12	–	human, plasma	oral, 10 mg once daily, multiple dose, monotherapy	–	1 h
CC(C)(C(=O)NC1C2CC3CC1CC(C(N)=O)(C3)C2)N1CCN(c2ccc(C(F)(F)F)cn2)CC1 (stereo not shown)	item: metabolite	human, CSF	oral, 10 mg once daily, 5 days, median	–	2.5 h
CCN(CC)CCNC(=O)c1c(C)[nH]c(/C=C2\C(=O)Nc3ccc(F)cc32)c1C	–	human, plasma	oral, cycle 1 day 1	–	1.8 h
CC1(COc2ccc3c(c2)ncn3-c2ccc3cccc(N4CCC(N)CC4)c3n2)COC1	–	human patients, recurrent/progressive HGG or DIPG, serum	oral, 220 mg/m^2, day 1, median	–	2 h
Cn1nnc2c(C(N)=O)ncn2c1=O	–	human patients, plasma	oral, 30 mg/m2, day 5, dose level DL4, median, added: talazoparib 600 µg/m2	–	1 h
O=C(O)C[C@H](O)C[C@H](O)/C=C/c1c(C2CC2)nc2ccccc2c1-c1ccc(F)cc1	–	OATP1B1/1B3 humanized mouse, plasma	oral, 5 mg/kg, added: rifampin 20 mg/kg oral	–	0.4 h
CC(=O)N(C)[C@H]1CCN(C(=O)c2cnc3c(c2)C[C@](C)(c2ccc(F)cc2)N3)C1	–	healthy male human, plasma	oral, 15 mg once daily, median	–	1 h
COc1ncc(-c2nc3c(n2C(C)C)[C@H](c2ccc(Cl)cc2)N(c2cc(Cl)cn(C)c2=O)C3=O)c(OC)n1	LC-MS/MS, noncompartmental	human, plasma	oral, 200 mg, C1D8, high-dose, median	–	2.1 h
N#Cc1cc(NC(=O)[C@H]2c3ccccc3C(=O)N(CC(F)(F)F)[C@@H]2c2cccnc2)ccc1F	–	human, plasma	oral, 300 mg, median	–	1.6 h
Cc1cn(C(=O)c2c(-c3c(Cl)cc(Cl)cc3Cl)noc2C(C)(C)F)c2cccc(/C=C/C(=O)O)c12	–	human patients	1400 mg bid, cycle 8 day 1	–	4.05 h
CCO	gas chromatography	human, plasma	0.5 g/kg, alone, median	–	0.5 h
COC(=O)N[C@@H](C)CNc1nccc(-c2cn(C(C)C)nc2-c2cc(Cl)cc(NS(C)(=O)=O)c2F)n1	–	human, plasma	oral, 50 mg, single dose alone	median	1.5 h
Cc1cc(-c2nccc3c2ccn3CC(=O)Nc2ccc(-c3cnccn3)cn2)ccn1	–	human, plasma	oral, 15 mg once daily, day 16, median	–	1.3 h
COc1ccc([C@@H]2CN(C(=O)[C@@H](O)CO)C[C@@]2(C)[C@@H](C)O)cc1OC1CN(c2ccc(C)cn2)C1	–	healthy humans, plasma	oral, 20 mg	–	1 h
CCNCCCNC/C=C\CNCCCNCC	LC-MS/MS	human cancer patients, plasma	intravenous infusion 60 min, 150 mg, median, cycle 1	–	0.5 h
Cc1cc(C)c(CNC(=O)c2cc(Cl)c3c(c2C)O[C@@](C)([C@H]2CC[C@H](N(C)C)CC2)O3)c(=O)[nH]1	item: total radioactivity	human male, whole blood	oral, 200 mg, median	–	2.75 h
CCCCCCCOc1ccc(CCC(N)(CO)CO)cc1C(F)(F)F.Cl	–	healthy human males, plasma	0.5 mg, day 21, median	–	6 h
C#C[C@]1(COP(=O)(O)OP(=O)(O)O)O[C@@H](n2cnc3c(N)nc(F)nc32)C[C@@H]1O	item: islatravir triphosphate	human, PBMC	oral, 200 mg single dose	–	18 h
Fc1ccc([C@@H]2CCNC[C@H]2COc2ccc3c(c2)OCO3)cc1	–	human, CYP2D6 normal metabolizers	oral, 20 mg, steady state, geometric mean	–	4.2 h
Cc1cc(/C=C/C#N)cc(C)c1Nc1ccnc(Nc2ccc(C#N)cc2)n1	–	human, normal renal function, plasma	oral, steady state, fixed-dose combination	–	8 h
Cn1ncnc1[C@H]1c2n[nH]c(=O)c3cc(F)cc(c23)N[C@@H]1c1ccc(F)cc1	–	human patients, plasma	oral, 600 µg/m2 twice daily day 1, day 5, dose level DL3, median, added: temozolomide 20 mg/m2 daily days 2-6	–	1 h
CCCCOc1nc(N)c2c(n1)N(Cc1cccc(CN3CCCC3)c1)CC(=O)N2	–	human	oral, 2 mg, median	–	3 h
Cc1cc(Nc2cc3ncccc3c(N[C@@H]3C[C@H]4CC[C@@H](C3)N4CCC#N)n2)n[nH]1	–	human, plasma	100 mg single dose, median	–	1 h
CO[C@H]1/C=C/O[C@@]2(C)Oc3c(C)c(O)c4c(O)c(c(/C=N/N5CCN(C)CC5)c(O)c4c3C2=O)NC(=O)/C(C)=C\C=C\[C@H](C)[C@H](O)[C@@H](C)[C@@H](O)[C@@H](C)[C@H](OC(C)=O)[C@@H]1C	–	healthy human subjects, plasma	oral, first dose, added: glecaprevir and pibrentasvir single dose	–	4 h

SMILES	test	test system	setting	scale	Tmax
C=CC(=O)NC1CCN(c2ncc3ncnc(Nc4ccc(Oc5ccc6c(c5)ncn6C)c(C)c4)c3n2)CC1	–	human, male, plasma	oral, 30 mg single dose, fasted, median	–	1.5 h
C[C@H](Oc1ccc(Br)cc1-c1ccon1)C(=O)O	LC-MS/MS, non-compartmental	human, plasma	200 mg once daily, day 1, multiple ascending dose, median	–	3.5 h
CC(C)[C@H](N)C(=O)NCCCS(=O)(=O)O	median	human, plasma	oral, 256.5 mg once daily days 8-14, day 14, fasted, capsule	–	0.5 h
Cc1cc(-c2nnc(N)nc2-c2ccc(F)cc2)cc(Cl)n1	–	human patients, plasma	oral, 150 mg capsule, single dose, median	–	2 h
COc1cc(N2CCC(N3CCN(C)CC3)CC2)ccc1Nc1ncnc(Nc2ccccc2S(=O)(=O)C(C)C)n1	–	human, dose expansion arm, plasma	oral, 200 mg, day 28, mean	–	3.49 h
CC(C)NC(=O)COc1cccc(-c2nc(Nc3ccc4[nH]ncc4c3)c3ccccc3n2)c1	–	human male, plasma	oral, 200 mg once daily, day 12, fed, median, added: dabigatran etexilate	–	2 h
Cn1c(=O)oc2ccc(-c3ccc(C[C@@H](C#N)NC(=O)[C@@H]4CNCCCO4)cc3)cc21	–	human, severe renal impairment, plasma	oral, 25 mg single dose, median	–	1 h
C#C[C@]1(CO)O[C@@H](n2cnc3c(N)nc(F)nc32)C[C@@H]1O	–	human, plasma	oral, 30 mg single dose, fed	–	1.25 h
CO[C@]1(C(=O)N[C@@H](C)c2ccc(-n3cc(F)cn3)nc2)CC[C@H](c2nc(C)cc(Nc3cc(C)[nH]n3)n2)CC1	–	human, plasma	oral, 200 mg, median	–	2 h
COc1c(C)c2c(c(O[C@@H]3O[C@H](C(=O)O)[C@@H](O)[C@H](O)[C@H]3O)c1C/C=C(\C)CCC(=O)O)C(=O)OC2	item: mycophenolic acid	healthy human subjects, plasma	oral, 1 g mycophenolate mofetil, median, alone	–	1.5 h
CCn1cc(C(=O)N2CCOCC2)c(=O)c2cc(NC3Cc4ccccc4C3)cnc21	–	human, fasted	oral suspension, 1200 mg single dose, median	–	2 h
CC(C)c1nc(N(C)S(C)(=O)=O)nc(-c2ccc(F)cc2)c1/C=C/[C@@H](O)C[C@@H](O)CC(=O)O	–	human, plasma	oral, 20 mg, day 2, median, alone	–	5 h
NCCCS(=O)(=O)O	–	human, plasma	oral, 265 mg twice daily, then once daily, day 7, tablet, fed, twice daily days 2-6, once daily day 7	–	3 h
COCCc1ccc(OCC(O)CNC(C)C)cc1 (stereo not shown)	–	human	–	–	4 h
CC(=O)N1CCC(Nc2cc(C(=O)NC[C@H](O)CN3CCc4ccccc4C3)ncn2)CC1	–	human, plasma	oral, 300 mg, week 3 day 1, median	–	2.95 h
Cc1noc(C)c1-c1cc(C(O)(c2ccccn2)c2ccccn2)c2nc(C3CC3)[nH]c2c1	–	human male patients, fasted, plasma	oral, 4 mg once daily, cycle 1 day 8	–	0.58 h
Cc1ncnc2c1ccn2[C@@H]1C[C@H](Oc2cc(C(F)F)c(F)c3c2CNCC3)[C@@H](O)[C@H]1O	–	human	oral, 1 mg twice daily	–	0.5 h and 1 h
C#C[C@]1(COP(=O)(O)O)O[C@@H](n2cnc3c(N)nc(F)nc32)C[C@@H]1O	item: islatravir triphosphate	human, PBMC	oral, 200 mg single dose	–	6 h
CN1CCC(COc2cnc(-c3cccc(Cn4nc(-c5cccc(C#N)c5)ccc4=O)c3)nc2)CC1	–	human	500 mg, alone, median	–	8.02 h
CC(F)(F)c1cc(F)ccc1-c1sc2cc(O)ccc2c1Oc1ccc(/C=C/C(=O)O)cc1	–	human, serum	oral, 900 mg once daily, cycle 1 day 28, fasted, median	–	3 h
N#CCC1CCN(c2nc(Nc3ccc(N4CCC(O)CC4)cc3)c3c(=O)[nH]ncc3n2)CC1	LC-MS/MS	human, plasma	oral, 20 mg once daily, day 15, median	–	2 h
COc1cc(C(=O)NC2CCN(C)CC2)c(F)cc1Nc1ncc(C(F)(F)F)c(Oc2cccc3c2C(=O)N(C)C3)n1	–	human patients, plasma	oral, 10 mg single dose, median	–	1.07 h
N#CCNC(=O)c1ccc(-c2ccnc(Nc3ccc(N4CCOCC4)cc3)n2)cc1	–	healthy human volunteers, plasma	oral, 100 mg once daily, day 7, fed, given alone	–	2.5 h
C[C@H](NC(=O)/C(C#N)=C/c1cccc(Br)n1)c1ccccc1	LC-MS/MS	human, plasma	oral, 1 mg/kg, cycle 1 day 8	–	2 h
CC1=C(c2cccc(O)c2)[C@H](c2ccc(OCCN3CC(CF)C3)cc2)Oc2ccc(O)cc21	–	human	oral, 600 mg single dose, median	–	3 h
CN(CC#N)C(=O)C[C@H](Nc1nc2ccccc2[nH]1)c1cccc(C(F)(F)F)c1	–	human	intravenous infusion, 3 mg/kg, 1 mg/mL formulation	–	0.43 ± 0.09 h

Excerpt of the above:
SMILES	test	test system	setting	scale	Tmax
N#Cc1cc(NC(=O)[C@H]2c3ccccc3C(=O)N(CC(F)(F)F)[C@@H]2c2cccnc2)ccc1F	–	human, plasma	oral, 300 mg, median	–	1.6 h
Cc1cn(C(=O)c2c(-c3c(Cl)cc(Cl)cc3Cl)noc2C(C)(C)F)c2cccc(/C=C/C(=O)O)c12	–	human patients	1400 mg bid, cycle 8 day 1	–	4.05 h
CCO	gas chromatography	human, plasma	0.5 g/kg, alone, median	–	0.5 h
COC(=O)N[C@@H](C)CNc1nccc(-c2cn(C(C)C)nc2-c2cc(Cl)cc(NS(C)(=O)=O)c2F)n1	–	human, plasma	oral, 50 mg, single dose alone	median	1.5 h
